Results pooled from the literature.
A part holds a random share of what one study measured.

Study 1 — technique: universal PBM; molecule type: double-stranded DNA, one strand shown; sample: in vitro; concentration: not given; reading: higher = stronger binding
Target: Sal-like protein 4, full length isoform B (SALL4, Homo sapiens, UniProt Q9UJQ4-2, residues 1-616)
Setting: 8-mer, flanks averaged, mean of replicates
Residues (chain): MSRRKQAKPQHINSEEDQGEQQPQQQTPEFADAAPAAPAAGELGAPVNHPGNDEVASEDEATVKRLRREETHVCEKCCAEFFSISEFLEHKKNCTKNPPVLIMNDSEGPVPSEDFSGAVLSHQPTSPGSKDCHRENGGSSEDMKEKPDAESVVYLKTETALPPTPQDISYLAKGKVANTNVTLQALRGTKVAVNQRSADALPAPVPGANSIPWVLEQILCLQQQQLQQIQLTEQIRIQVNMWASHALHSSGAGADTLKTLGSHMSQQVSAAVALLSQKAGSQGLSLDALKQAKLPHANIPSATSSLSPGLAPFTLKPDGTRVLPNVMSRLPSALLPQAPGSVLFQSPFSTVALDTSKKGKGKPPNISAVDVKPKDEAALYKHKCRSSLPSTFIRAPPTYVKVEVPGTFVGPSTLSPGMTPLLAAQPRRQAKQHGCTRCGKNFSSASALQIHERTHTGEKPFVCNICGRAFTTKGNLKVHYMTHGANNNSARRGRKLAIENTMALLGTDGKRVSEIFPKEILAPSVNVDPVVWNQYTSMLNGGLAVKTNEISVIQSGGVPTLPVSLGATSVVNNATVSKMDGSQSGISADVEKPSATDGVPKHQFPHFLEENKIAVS
With `ATCCACCG` the E-score was -0.202.
The E-score of `AACTAAGT` is reported as 0.0786.
`CACTATGC` gave an E-score of 0.122.
For `CTTTCCAC`, the E-score was 0.0245.
`ACGACCCT` has an E-score of -0.166.

Study 2 — technique: protein binding microarray; molecule type: double-stranded DNA, one strand shown; sample: in vitro; concentration: not given; relative to: not given; reading: higher = stronger binding
Target: Histone acetyltransferase KAT6A, winged helix 2, GST fusion (KAT6A, Homo sapiens, UniProt Q92794, residues 85-181)
Setting: 8-mer, flanks averaged, mean of 2 arrays, mostly near background
Target sequence (chain): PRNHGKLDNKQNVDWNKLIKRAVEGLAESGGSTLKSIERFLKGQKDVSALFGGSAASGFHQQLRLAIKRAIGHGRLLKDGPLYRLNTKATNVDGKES
`CACTTTTA` gave an E-score of 0.0758.
`TGACCACA` gave an E-score of -0.0522.
The E-score of `CTGGGGTA` is reported as -0.129.
The E-score of `AGTCATCA` is reported as -0.103.
`AGCTATTG` has an E-score of -0.0177.
`ACACCGTG` has an E-score of -0.102.
With `CGGAACCA` the E-score was 0.176.

Study 3 — technique: protein-binding microarray; molecule type: double-stranded DNA, one strand shown; sample: in vitro; concentration: 250 nM; setting: 60-bp whole probe; together with: salmon DNA 0.4 mg/ml; relative to: random background probes; reading: higher = stronger binding
Target: Interferon regulatory factor 7, full length, phosphomimetic (IRF7, Homo sapiens, UniProt Q92985, residues 1-503, S101K/S471D/S472D/S475D/S476D/S477D/S483D/S484D/S487D)
All sequences stand within: GCCTAGCAC … GTGCTAGGTCTTGATTCGCTTGACGCTGCTG
Residues (chain): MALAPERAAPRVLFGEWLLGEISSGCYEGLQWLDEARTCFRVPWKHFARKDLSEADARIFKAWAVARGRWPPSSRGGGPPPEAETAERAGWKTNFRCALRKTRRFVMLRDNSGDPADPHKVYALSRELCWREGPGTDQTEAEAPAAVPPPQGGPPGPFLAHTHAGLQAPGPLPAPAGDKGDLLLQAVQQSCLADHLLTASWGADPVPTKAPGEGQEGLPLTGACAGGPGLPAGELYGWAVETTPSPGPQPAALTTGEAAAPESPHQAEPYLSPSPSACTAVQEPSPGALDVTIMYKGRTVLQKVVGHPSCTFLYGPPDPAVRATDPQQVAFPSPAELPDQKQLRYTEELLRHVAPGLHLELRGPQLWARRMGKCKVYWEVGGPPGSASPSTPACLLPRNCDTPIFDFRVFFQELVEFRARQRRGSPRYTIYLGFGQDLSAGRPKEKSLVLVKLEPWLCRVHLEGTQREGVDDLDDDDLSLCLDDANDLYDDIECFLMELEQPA
With `GTTGCTCTCTCACCACCTTC` the log fluorescence was 0.119 z-score.
The log fluorescence of `TGGATACTTTGCTGAACATC` is reported as -0.298 z-score.
`TTAGATTTCTGACTGGATTA` gave a log fluorescence of -0.0963 z-score.
With `TTAGGTTTCCTTATCCTATA` the log fluorescence was 3.58 z-score.
For `GACGATTCCGGTTTCGAGAC`, the log fluorescence was 5.27 z-score.
The log fluorescence of `GACGGTAGCCTTATCCTGAC` is reported as -0.972 z-score.

Mixed results
`PhoQ, residues 284 288 289 292 302 303 SCEHLI` has a fold induction of 14.1 (PhoP, residues 12 14 15 18 19 MHTVL (Escherichia coli, UniProt P23836); Sort-seq, item: YFP reporter; E. coli; PhoQ-PhoP variant library, together with: 10 µM Mg2+; relative to: high Mg2+ state, higher = stronger signaling).

Repeated from above (study 3):
With `TTAGGTTTCCTTATCCTATA` the log fluorescence was 3.58 z-score.
